Published values of several laboratories.
Lines come from different studies, so protocols differ. ± marks the error that the study gave.
Sequence of UniProt Q9ULK4 (whole entry, looked up): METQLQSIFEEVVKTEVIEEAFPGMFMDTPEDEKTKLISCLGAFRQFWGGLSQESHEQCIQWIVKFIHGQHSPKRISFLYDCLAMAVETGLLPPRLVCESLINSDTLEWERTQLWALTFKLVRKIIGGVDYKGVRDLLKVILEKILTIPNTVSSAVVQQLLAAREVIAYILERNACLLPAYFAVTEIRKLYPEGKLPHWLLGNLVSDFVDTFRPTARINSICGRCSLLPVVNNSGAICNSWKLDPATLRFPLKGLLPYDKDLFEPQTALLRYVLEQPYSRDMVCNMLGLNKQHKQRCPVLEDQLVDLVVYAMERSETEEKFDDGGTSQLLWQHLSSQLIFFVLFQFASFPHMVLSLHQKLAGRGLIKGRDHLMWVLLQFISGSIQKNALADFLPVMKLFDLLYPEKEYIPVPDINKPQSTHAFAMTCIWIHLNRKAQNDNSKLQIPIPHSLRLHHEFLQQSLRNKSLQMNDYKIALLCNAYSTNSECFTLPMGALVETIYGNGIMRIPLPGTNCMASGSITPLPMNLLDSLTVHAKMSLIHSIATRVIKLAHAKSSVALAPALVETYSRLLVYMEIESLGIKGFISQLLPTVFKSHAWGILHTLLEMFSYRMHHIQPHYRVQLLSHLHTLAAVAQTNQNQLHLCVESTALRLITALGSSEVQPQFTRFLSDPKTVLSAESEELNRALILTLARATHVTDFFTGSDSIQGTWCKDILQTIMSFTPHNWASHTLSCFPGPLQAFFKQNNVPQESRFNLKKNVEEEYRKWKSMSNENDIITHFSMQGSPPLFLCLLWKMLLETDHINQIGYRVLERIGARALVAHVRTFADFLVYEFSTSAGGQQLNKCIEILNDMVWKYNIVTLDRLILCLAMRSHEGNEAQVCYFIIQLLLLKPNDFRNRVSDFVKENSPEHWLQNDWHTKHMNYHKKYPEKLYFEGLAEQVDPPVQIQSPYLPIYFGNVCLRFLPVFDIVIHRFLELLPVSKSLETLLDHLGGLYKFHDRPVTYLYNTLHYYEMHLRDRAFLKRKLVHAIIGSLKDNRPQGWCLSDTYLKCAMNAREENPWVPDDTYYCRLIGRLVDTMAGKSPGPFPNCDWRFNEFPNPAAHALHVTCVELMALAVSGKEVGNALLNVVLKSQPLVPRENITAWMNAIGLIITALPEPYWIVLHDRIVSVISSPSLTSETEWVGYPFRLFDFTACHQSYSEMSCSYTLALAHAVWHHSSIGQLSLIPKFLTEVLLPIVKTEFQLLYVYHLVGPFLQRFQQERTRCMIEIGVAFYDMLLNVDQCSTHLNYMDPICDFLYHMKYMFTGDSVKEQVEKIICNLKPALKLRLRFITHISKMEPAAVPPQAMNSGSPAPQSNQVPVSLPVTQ
Sequence of UniProt P18031 (whole entry, looked up): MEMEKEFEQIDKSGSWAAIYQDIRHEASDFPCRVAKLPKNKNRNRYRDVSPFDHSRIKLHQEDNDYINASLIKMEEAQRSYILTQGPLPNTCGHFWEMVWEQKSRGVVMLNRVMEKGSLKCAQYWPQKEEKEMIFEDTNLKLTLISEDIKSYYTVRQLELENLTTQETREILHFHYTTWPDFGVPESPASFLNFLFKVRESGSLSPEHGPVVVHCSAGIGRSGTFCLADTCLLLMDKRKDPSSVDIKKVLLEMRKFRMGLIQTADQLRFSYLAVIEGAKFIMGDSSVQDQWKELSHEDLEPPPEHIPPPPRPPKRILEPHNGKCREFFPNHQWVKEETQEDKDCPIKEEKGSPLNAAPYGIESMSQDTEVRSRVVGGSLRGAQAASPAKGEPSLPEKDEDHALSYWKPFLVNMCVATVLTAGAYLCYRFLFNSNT

CN1C(=O)[C@@H](NC(=O)c2nnc(Cc3ccccc3)[nH]2)COc2cccnc21
participants with TEAE leading to death (phase I single ascending dose; human, male and female; oral, 30 mg, fasted): 0%

COc1ccc(-c2c(-c3ccc(C#N)c(F)c3)nc(N3CCC(N)CC3)n(C)c2=O)cc1F
treatment-related adverse event incidence (refers to: Vomiting; relapsed/refractory marginal zone lymphoma patients; oral, 60 mg, any grade, dose expansion): 0%

Clc1ccc(-c2ccccc2)cc1
creatinine (Sprague-Dawley rats, female, serum; inhalation, 23 µg/rat, 2 h after exposure): 0.3 ± 0.1 mg/dL

CC(C)C[C@@H]1NC(=O)[C@H](CC(C)C)NC(=O)[C@H](Cc2c[nH]c3ccccc23)NC(=O)[C@H](CO)NC(=O)[C@H](Cc2c[nH]c3ccccc23)NC(=O)[C@@H]2CCCN2C(=O)[C@H](CC(C)C)NC(=O)[C@H](Cc2c[nH]cn2)NC(=O)[C@@H]2CCCN2C(=O)[C@H](CC(N)=O)NC(=O)[C@H](C)NC(=O)[C@H](Cc2ccc(O)cc2)NC(=O)[C@H](CS)NC(=O)[C@H](CCCCNC(=O)CN2CCN(CC(=O)O)CCN(CC(=O)O)CCN(CC(=O)O)CC2)NC1=O [lutetium-177 labelled]
total nuclear transformations (OLINDA dosimetry; BALB/c mice, lung; 37 MBq, 7 days): 36.5 MBq-s

C[C@H]1CN(c2n[nH]c3nc(N[C@H]4CC[C@H](NS(=O)(=O)CCC(F)(F)F)CC4)ncc23)CCO1
relative abundance (MED23 (Homo sapiens, UniProt Q9ULK4); inhibitor, Kinobeads competition profiling; 20 µM; relative to: vehicle): 1.1

CC[C@H](C)[C@@H]1NC(=O)[C@@H]2CCCN2C(=O)[C@H](CC(C)C)NC(=O)[C@H](CC(C)C)NC(=O)CNC(=O)[C@@H](NC(=O)[C@@H](NC(=O)[C@H](CC(=O)O)NC(=O)CNC(=O)[C@@H](NC(=O)[C@H](C)NC(=O)CNC(=O)[C@H](CCCCN)NC(=O)[C@H](CC(C)C)NC(=O)[C@H](CC(C)C)NC(=O)[C@H](CCCCN)NC(=O)CNC(=O)[C@@H](NC(=O)[C@@H](N)CC(C)C)C(C)C)C(C)C)C(C)C)CSSC[C@@H](C(=O)O)NC1=O
log2 fold change (RNA-seq, refers to: novel.247 mRNA; mouse traumatic brain injury, frontal cortex and hippocampus; dose not given; relative to: TBI plus compound vs TBI): -1.86

C[C@]1(CO)Cc2ncn(-c3ccc(C#N)c(Cl)c3)c2C(=O)O1
subjects with severe TEAEs (human; 0.7 mg single dose): 0%

CCc1ccc(CC/C=C/c2ccc3c(c2)C(=O)CC3)cc1
prothrombin time (Sprague-Dawley rat, female, blood; oral, 450 mg/kg/day, 14 days): 12.2 s

CC(=O)c1c(C)c2cnc(Nc3ccc(C4CCN(CCS(C)(=O)=O)CC4)cn3)nc2n(C2CCCC2)c1=O
Tmax (human; oral, dose not given, steady state, continuous dosing, range over doses): 0.5 to 3 h

C[C@@H](NC(=O)N1C(=O)[C@H](Cc2ccnc(N)c2)[C@H]1C(=O)O)C1CCCCC1
incidence of elevated creatine phosphokinase (healthy adult Chinese volunteers; continuous intravenous infusion, 1.0 mg/kg/h, 5-day infusion, CTCAE 5.0 grading): 12.5%

O=c1nc(NO)ccn1[C@@H]1O[C@H](CO)[C@@H](O)[C@H]1O
freeze-thaw stability (rat fetus dialysate; 1000 ng/mL, high concentration, three cycles, with: molnupiravir 250 ng/mL): 97.6 ± 4.28%

N=C(N)NCCNC(=O)C1(Nc2ccccc2)CCN(Cc2ccccc2)CC1
elimination rate constant (Sprague-Dawley rats, both sexes; oral, 50 mg/kg, mean of both sexes): 0.00119 ± 0.000111 s⁻¹

C[C@@H](O)[C@@H](CO)NC(=O)[C@@H](CCCNC(=N)N)NC(=O)[C@@H]1CCCN1C(=O)[C@@H]1CSSC[C@H](NC(=O)[C@H](Cc2ccccc2)NC(=O)CN2CCN(CC(=O)O)CCN(CC(=O)O)CCN(CC(=O)O)CC2)C(=O)N[C@@H](Cc2ccc(O)cc2)C(=O)N[C@@H](Cc2ccccc2)C(=O)N[C@@H](CCC(N)=O)C(=O)N[C@@H](CC(N)=O)C(=O)N1 [gallium-68 labelled]
tissue uptake (healthy Wistar rat, pancreas; intravenous, 8 MBq, 120 min, individual animals): 0.02 %ID/g

C[C@]1(O)C[C@@](N)(c2ccc(-c3nc4n(c3-c3ccccc3)COc3ccncc3-4)cc2)C1
patients with Stomatitis TEAE (human, advanced or metastatic solid tumours; 16 mg once daily, dose-response cohort): 0%

COc1c(CCC[P+](c2ccccc2)(c2ccccc2)c2ccccc2)cc2c(c1OC)OCO2.[I-]
GI50 (OVCAR-3; SRB): -6.2 log M

COc1cc(Nc2ncc(F)c(Nc3ccc4c(n3)NC(=O)C(C)(C)O4)n2)cc(OC)c1OC
IC50 (PTPN1 (Homo sapiens, UniProt P18031); PTP1B): > 10 µM

O=C(O)CNCP(=O)(O)O
dose fraction in milk fat (whole cow milk; 2000 nM nominal): 1.07%

COc1cc2c(Oc3ccc4[nH]c(C)cc4c3F)ccnc2cc1OCC1(N)CC1
abdominal distension incidence (paediatric refractory sarcoma patients; 12 mg): 9.1%

CO[C@H]1C[C@@H]2CC[C@@H](C)[C@@](O)(O2)C(=O)C(=O)N2CCCC[C@H]2C(=O)O[C@H]([C@H](C)C[C@@H]2CC[C@@H](OC(=O)NCCOCCOCCOCCOCCOCCOCCOCCOCCC(=O)N3CCc4cc(Cn5nc(-c6ccc7oc(N)nc7c6)c6c(N)ncnc65)ccc4C3)[C@H](OC)C2)C[C@@H](O)[C@H](C)/C=C(\C)[C@@H](O)[C@@H](OC)C(=O)[C@H](C)C[C@H](C)/C=C/C=C/C=C/1C
TRAE incidence (phase 1 dose escalation, refers to: fatigue; advanced solid tumour patients; intravenous, 8 mg weekly, grade ≥3): 0%
